Measurements from different studies.
± gives the spread as reported.

Structure (SMILES)	assay	system	setting	quantity	result
CN(C)C(=O)c1cc2cnc(Nc3ccc(-c4ccc5c(=O)cc(N6CCOCC6)oc5c4)cc3)nc2n1C1CCCC1		BALB/c mouse, plasma	oral, 20 mg/kg	AUC extrapolated	0.5 ± 0.2%
CCCCCOC(=O)Nc1nc(=O)n([C@@H]2O[C@H](C)[C@@H](O)[C@H]2O)cc1F		FVB mouse, abcb1 knock-out, plasma	oral, 300 mg/kg, 0 to 120 min	AUC	37600 ng·h/mL
COc1ccc2c3c([nH]c2c1)[C@H](CC(C)C)N1C(=O)[C@H](CCC(=O)NC(C)(C)C)NC(=O)[C@@H]1C3	UPLC-QTOFMS	wild-type mouse, serum	oral, 50 mg/kg	AUC	increased
COc1cc2c3c(n(CCCNCCO)c(=O)c2cc1OC)-c1nc2c(cc1C3=O)OCO2		male CD1 mouse, plasma	intravenous, 1 mg/kg	AUC extrapolated	2.61%
CCc1cc(OC)c2nccc(N3CCc4c(cc(Cn5ccnc5)cc4-c4cn(C)nc4C(F)(F)F)C3=O)c2c1		CD-1 mouse, male, plasma	oral, 50 mg/kg	AUC extrapolated	1.7%
COc1ccc2c3c([nH]c2c1)[C@H](CC(C)C)N1C(=O)[C@H](CC(=O)NC(C)C)NC(=O)[C@@H]1C3		wild-type male mouse, serum	oral, 100 mg/kg	AUC	147 µM·h
COc1ccc(Cl)cc1S(=O)(=O)Nc1cncc(C(N)=O)c1		mouse, plasma	oral, 10 mg/kg	AUC	> 800000 ng·h/mL
CO[C@H]1/C=C/O[C@@]2(C)Oc3c(C)c(O)c4c(c3C2=O)C2=NC3(CCN(CC(C)C)CC3)NC2=C(NC(=O)/C(C)=C\C=C\[C@H](C)[C@H](O)[C@@H](C)[C@@H](O)[C@@H](C)[C@H](OC(C)=O)[C@@H]1C)C4=O		CD-1 mouse, plasma	oral, 12.5 mg/kg, efficacy dose	AUC	21500 ng·h/mL
Cc1ccc2cncc(N3CCc4c(cc(Cn5ccnc5)cc4-c4cn(C)nc4C(F)(F)F)C3=O)c2c1		CD-1 mouse, male, plasma	intravenous, 3 mg/kg	AUC extrapolated	0.8%
COc1cc2c3c(n(CCCNC(C)C)c(=O)c2cc1OC)-c1nc2c(cc1C3=O)OCO2		male CD1 mouse, plasma	oral, 10 mg/kg	AUC extrapolated	8.61%
COc1cc(OC)c2nccc(N3CCc4c(cc(Cn5ccnc5)cc4-c4cn(C)nc4C(F)(F)F)C3=O)c2c1		CD-1 mouse, male, plasma	intravenous, 3 mg/kg	AUC extrapolated	0.3%
CCNCCCn1c2c(c3cc(OC)c(OC)cc3c1=O)C(=O)c1cc3c(nc1-2)OCO3		male CD1 mouse, plasma	intravenous, 1 mg/kg	AUC extrapolated	8.98%
CNC(=O)c1cc(OC)cc2c(N3CCc4c(cc(Cn5ccnc5)cc4-c4cn(C)nc4C(F)(F)F)C3=O)ccnc12		CD-1 mouse, male, plasma	oral, 50 mg/kg	AUC extrapolated	0.3%
CC(C)Oc1c(NC(=O)c2ccc(NC(=O)[C@H](CC(N)=O)NC(=O)c3ccc(NC(=O)c4ccc(C#N)cc4)cc3)cc2)ccc(C(=O)Nc2ccc(C(=O)O)cc2)c1O		CD-1 mouse male, plasma	intravenous, 5 mg/kg	AUC	2090 ± 573 ng·h/mL

Repeated from above:
Structure (SMILES)	assay	system	setting	quantity	result
COc1ccc2c3c([nH]c2c1)[C@H](CC(C)C)N1C(=O)[C@H](CC(=O)NC(C)C)NC(=O)[C@@H]1C3		wild-type male mouse, serum	oral, 100 mg/kg	AUC	147 µM·h
